# Published values from different studies.
# Values joined by “and” are separate records of one study, mostly repeats; a detail may differ. Numbers after ± are the reported error.
# Cell line: HeLa
Compound,assay,setting,how to read,endpoint,value
Cc1cc(CCCOc2c(C)cc(-c3noc(C(F)(F)F)n3)cc2C)on1,,72 h,,CC50,42 µM
CN1CCC(c2c(O)cc(O)c3c(=O)cc(-c4ccccc4)oc23)C(O)C1 (stereo not drawn),,,,CC50,0.19 µM
CC(C)n1ncc2c(C(=O)NCC3(C)CNC3)cc(C3CC3)nc21,neutral red uptake,"9.2 µM, DMEM, 2% FBS",reference: positive control,viability,97.1%
Nc1nc(-c2ccccc2)nc2[nH]nc(Nc3ccc(C(F)(F)F)cc3)c12,,72 h,,CC50,> 540 µM
C[C@H](CCC(=O)NCCS(=O)(=O)O)[C@H]1CC[C@H]2[C@@H]3[C@H](O)C[C@@H]4C[C@H](O)CC[C@]4(C)[C@H]3C[C@H](O)[C@]12C,,"50 µM, 24 h",,cytotoxicity,not toxic
CC(=O)N[C@@H](CS)C(=O)O,annexin V/PI,"concentration not given, 48 h",,viable cells,90.4 ± 1.36%
COc1cc(/C=C/C=C2\SC(=S)NC2=O)cc(OC)c1O,CellTiter-Glo,"10 µM, 24 h, unit not given",reference: untreated,viability,0.985 and 0.978
CC[C@H](C)[C@H](NC(=O)[C@H](CC(=O)O)NC(=O)[C@H](CCC(=O)O)NC(=O)[C@@H](N)CC(N)=O)C(=O)N[C@@H](CC(=O)O)C(=O)N[C@@H](CCC(N)=O)C(=O)N[C@@H](CCSC)C(=O)N[C@@H](Cc1ccccc1)C(=O)N[C@@H](CO)C(=O)N[C@H](C(=O)N[C@@H](CC(C)C)C(=O)N[C@@H](CC(C)C)C(=O)NCC(=O)N[C@@H](CCC(=O)O)C(=O)N[C@@]1(C)CCCC=CCCC[C@@](C)(C(=O)N[C@@H](CCC(N)=O)C(=O)N[C@@H](CO)C(=O)O)NC(=O)[C@H](CC(C)C)NC(=O)[C@H](CC(C)C)NC(=O)[C@H](CC(=O)O)NC1=O)[C@@H](C)O,,"40 µM, 24, 48, 72 h",,cell viability,not toxic
Cc1cnc(CNC(=O)c2c(=O)c3ccc(N4CCCN(C)CC4)nc3n3c2sc2ccccc23)cn1,"cytotoxicity, resazurin",5 days,,CC50,< 0.2 µM
O=C(Nc1ccc2c(c1)OC(F)(F)O2)Nc1ccc(Cl)c(C(F)(F)F)c1,,24 h,,CC50,7.04 µM
CCC(=CCc1c(O)cc2c(c1O)C(=O)C[C@H](c1ccccc1O)O2)CC,"cytotoxicity, MTT","48 h, added: S9 fraction",,log IC50,1.57 log µM
C[n+]1cc(NC(=O)c2ccc3ccc4ccc(C(=O)Nc5cc6ccccc6[n+](C)c5)nc4c3n2)cc2ccccc21,resazurin,5 days,,CC50,53 ± 3 µM
